Measurements from different studies.
A part holds a random share of what one study measured.

Series 1
Target: Ras GTPase-activating protein-binding protein 1, C-terminal RGG region (G3BP1, Homo sapiens, UniProt Q13283)
UniProt Q13283, sequence (whole entry, looked up): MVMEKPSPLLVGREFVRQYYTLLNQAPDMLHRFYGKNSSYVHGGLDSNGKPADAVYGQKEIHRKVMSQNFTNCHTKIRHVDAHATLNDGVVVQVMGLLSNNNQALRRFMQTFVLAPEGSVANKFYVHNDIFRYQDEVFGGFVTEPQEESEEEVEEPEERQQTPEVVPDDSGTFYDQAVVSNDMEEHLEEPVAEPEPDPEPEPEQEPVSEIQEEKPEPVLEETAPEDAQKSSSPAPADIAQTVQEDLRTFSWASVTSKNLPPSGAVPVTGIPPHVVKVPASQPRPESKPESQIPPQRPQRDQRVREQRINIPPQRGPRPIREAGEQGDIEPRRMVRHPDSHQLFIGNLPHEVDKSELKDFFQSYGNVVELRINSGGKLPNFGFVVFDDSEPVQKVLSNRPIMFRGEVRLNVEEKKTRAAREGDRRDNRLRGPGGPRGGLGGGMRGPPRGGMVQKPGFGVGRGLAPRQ
Technique: RNA Bind-n-Seq
Molecule type: RNA
Matrix: in vitro
Tested at: 1 µM
Setting: whole 134-nt RNA, ends assumed
Together with: 150 mM KCl
Baseline: input library
Reading: higher = stronger binding
| Oligonucleotide | log2 enrichment |
| --- | --- |
| GGGAGUUCUACAGUCCGACGAUCUCCUCAAGUCCUGUGCUACACAUCGUAUGUACCGAAUCGGUGGAGGAAAGGAAAGUAUUAUGUUACGCCGUUCGGAUCUGCACUUCCAGCUGGAAUUCUCGGGUGUCAAGG | -1.06 |
| GGGAGUUCUACAGUCCGACGAUCAAGUCCUGUGCUACACAUCGUAUGUACCGAAUCGGGGUGGGGAGGGGUUUUUGGGGAAAGUAUUAUGUUACGCCGUUCGGAUCUGCACUUUGGAAUUCUCGGGUGUCAAGG | 2.04 |
| GGGAGUUCUACAGUCCGACGAUCUAACUUUAGAGGAGGAUCUGAUGGAUAUGGCAGUGGACGUGGAUUUGGGGAUGGCUAUAAUGGGUAUGGAGGAGUACCUGGAGGUGGCAAUGGAAUUCUCGGGUGUCAAGG | -0.151 |
| GGGAGUUCUACAGUCCGACGAUCUAACUUUAGAGGAGGAUCUGAUGGAUAUGGCAGUGGACGUGGAUUUGUGGAUGGCUAUAAUGGGUAUGGAGGAGGACCUGGAGGUGGCAAUGGAAUUCUCGGGUGUCAAGG | -0.948 |

Series 2
Target: Interferon regulatory factor 5, full length, phosphomimetic (IRF5, Homo sapiens, UniProt Q13568-2, residues 1-514, S451D/S453D/S456D/S462D)
Technique: protein-binding microarray
Molecule type: double-stranded DNA, one strand shown
Matrix: in vitro
Tested at: 940 nM top
Setting: 60-bp whole probe
Together with: salmon DNA 0.4 mg/ml
Baseline: random background probes
Reading: higher = stronger binding
All sequences stand within: GCCTAGCAC … GTCTTGATTCGCTTGACGCTGCTG
| Oligonucleotide | fitted relative affinity [z-score] |
| --- | --- |
| GACGGACTGGGTCTTGGGACGTGCTAG | -0.566 |
| GACGGAATCGACTATCGGGACGTGCTA | -0.108 |
| GACGATTTCAGTTCCGACACGTGCTAG | 0.961 |
| TTAGGACTGAGTCTCGATTAGTGCTAG | 2.36 |
| TCAGCTCTTATATACCTGACTGTGCTA | 0.63 |
| TCAGGTTTCAGATGCGTACTGTGCTAG | 2.3 |

Series 3
Target: RNA binding protein fox-1 homolog 2, RRM domain, GST-SBP tag (RBFOX2, Homo sapiens, UniProt O43251-10, residues 100-194)
Technique: RNA Bind-n-Seq
Molecule type: RNA
Matrix: in vitro
Tested at: 365 nM
Setting: natural RNA segment, single round, ends assumed
Baseline: no-protein control
Reading: higher = stronger binding
| Oligonucleotide | RBNS enrichment (R) |
| --- | --- |
| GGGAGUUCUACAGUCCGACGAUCAAAUUUUGUUAGGCCACAAAAACACUGCACUGUGAACAUUUUAGAAAAGGUAUGUCAGACUGGGAUUAAUGACAGCAUGAUUUUCAAUGACUGUAAAUUGCGAUAAGGAAUGGAAUUCUCGGGUGCCAA | 4.69 |
| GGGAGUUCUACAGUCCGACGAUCGGGUUGCGGUGCAUGAAACCGCUGGGUCCUGGCUGUCACUCCUGUUGGGGGUCUGAAGGUGGCUGGCACUGGGCCUCAGGUCACCCUGAGCCAGUCCCGUGGCCACUUCAUGGAAUUCUCGGGUGCCAA | 4.51 |
| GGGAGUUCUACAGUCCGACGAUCUUUAUUUAUCUCUUCCUGAACCAUGAAUUUCAUAUGUGGAAUAUUGCUAUAUUGACAGAUUCUUGCCUGUCUGUGUUAUUCUAGGAUCUGUUACAGGUCCAUGGCAAUUAUGGAAUUCUCGGGUGCCAA | 1.19 |
| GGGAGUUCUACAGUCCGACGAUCAGCGUGAGUAGCUCUUUUGUUUACUGUUUACACCCCUUAUUGGCAUGUCAACUCCUGUACUUCCCUUACUCUGUUGCCUUUCUUGAGAUGCAUUGUCCUGCUAACCCACAUGGAAUUCUCGGGUGCCAA | 0.966 |
| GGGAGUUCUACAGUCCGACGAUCCGGGGCCUUCAAUUUACGUUCUUUACACUACGGGGACUGGGGUCGUCUUUGCCCACGUCCCGACAACUUGUUCCCUGACCCCCUCAGGGAUGGCCCCAAACUGUCCCUGCUGGAAUUCUCGGGUGCCAA | 0.37 |
| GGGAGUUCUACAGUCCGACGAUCUGGGCCUUGUGGGGCAAAUAUUGGGUCCCCAGGCUGGAAAGAUGGACAGAGGCCCAAUGGGUGAAGGCUUUGAAGAGCACACAGAAGCCCCUGGCCCCCCACGAGAGCUGUGGAAUUCUCGGGUGCCAA | 0.455 |

Other studies, line by line
| Molecule | target | test | system | setting | how to read | measurement | value |
| --- | --- | --- | --- | --- | --- | --- | --- |
| PhoQ, residues 284 288 289 292 302 303 ALVSVA | PhoP, residues 12 14 15 18 19 AWHSL (Escherichia coli, UniProt P23836) | Sort-seq, refers to: YFP reporter | E. coli | PhoQ-PhoP variant library, together with: 10 µM Mg2+ | baseline: high Mg2+ state, higher = stronger signaling | fold induction | 4.33 |

Repeated from above (series 3):
| Oligonucleotide | RBNS enrichment (R) |
| --- | --- |
| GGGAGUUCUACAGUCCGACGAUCAGCGUGAGUAGCUCUUUUGUUUACUGUUUACACCCCUUAUUGGCAUGUCAACUCCUGUACUUCCCUUACUCUGUUGCCUUUCUUGAGAUGCAUUGUCCUGCUAACCCACAUGGAAUUCUCGGGUGCCAA | 0.966 |
| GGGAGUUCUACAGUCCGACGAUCGGGUUGCGGUGCAUGAAACCGCUGGGUCCUGGCUGUCACUCCUGUUGGGGGUCUGAAGGUGGCUGGCACUGGGCCUCAGGUCACCCUGAGCCAGUCCCGUGGCCACUUCAUGGAAUUCUCGGGUGCCAA | 4.51 |
